Results of several laboratories.
Compare with care: the assays were run in different laboratories.
Organism: Escherichia coli

SMILES = COc1c(NC(=O)c2ccc(NC(=O)c3ccc(NC(=O)[C@H](Cc4c[nH]nn4)NC(=O)c4ccc(NC(=O)/C(C)=C/c5ccc(O)cc5)cc4)cc3)c(OC)c2O)ccc(C(=O)O)c1O; test = microbial growth, broth dilution; MIC = 0.063 µg/mL
SMILES = CC(C)Oc1c(NC(=O)c2ccc(NC(=O)[C@H](CC(N)=O)NC(=O)c3ccc(/N=N/c4ccccc4)cc3)cc2)ccc(C(=O)N/N=C/c2ccc(C(=O)O)cc2)c1O; test system = BW25113; conditions = dark ground state; MIC = 0.4 µg/mL
SMILES = CO[C@@H](C(N)=O)[C@H](NC(=O)c1ccc(NC(=O)[C@@H](N)Cc2ccccc2)cc1)C(=O)Nc1ccc(C(=O)Nc2ccc(C(=O)Nc3ccc(C(=O)O)c(O)c3OC(C)C)c(O)c2OC(C)C)cc1; MIC = 0.03 µg/mL
SMILES = CC[C@H](C)[C@H](NC(=O)[C@@H]1CCCN1C(=O)CNC(=O)[C@H](CC(C)C)NC(=O)[C@H](CCCCN)NC(=O)[C@H](CCCNC(=N)N)NC(=O)[C@H](Cc1c[nH]c2ccccc12)NC(=O)[C@H](C)NC(=O)[C@H](CC(N)=O)NC(=O)[C@H](CCCCN)NC(=O)[C@H](CC(C)C)NC(=O)[C@H](CCCCN)NC(=O)[C@H](CC(N)=O)NC(=O)[C@H](CCCNC(=N)N)NC(=O)[C@H](C)NC(=O)[C@H](CCCNC(=N)N)NC(=O)[C@H](CCCNC(=N)N)NC(=O)[C@H](Cc1ccccc1)NC(=O)[C@H](Cc1c[nH]c2ccccc12)NC(=O)CN)C(=O)N[C@H](C(=O)NCC(=O)N1CCC[C@H]1C(=O)N[C@@H](CC(C)C)C(=O)N[C@@H](CC(C)C)C(=O)N[C@H](C(=O)N[C@@H](CCCNC(=N)N)C(=O)O)[C@@H](C)O)C(C)C; test = broth microdilution; test system = ATCC 25922, Mueller-Hinton broth; conditions = 16 to 20 h, 37 °C; MIC = 2.2 µg/mL
SMILES = CC(C)C[C@H](NC(=O)[C@@H](NC(=O)[C@H](CCCCN)NC(=O)[C@H](CCCCN)NC(=O)[C@H](CC(C)C)NC(=O)[C@H](Cc1c[nH]c2ccccc12)NC(=O)[C@H](CCCCN)NC(=O)[C@H](Cc1c[nH]c2ccccc12)NC(=O)[C@H](CC(C)C)NC(=O)[C@H](CCCCN)NC(=O)[C@H](CCCCN)NC(=O)[C@@H](N)C(C)C)C(C)C)C(N)=O; conditions = 24 h, 37 °C, Mueller-Hinton broth, NaCl 150 mM; MIC = 32 µM
SMILES = CC(C)C[C@H](NC(=O)[C@H](CCC(=O)O)NC(=O)[C@H](C)NC(=O)[C@H](CC(C)C)NC(=O)[C@H](CCC(=O)O)NC(=O)[C@H](C)NC(=O)[C@H](CCC(N)=O)NC(=O)[C@H](CC(C)C)NC(=O)[C@H](CCC(=O)O)NC(=O)[C@H](Cc1ccc(O)cc1)NC(=O)[C@H](CC(C)C)NC(=O)[C@H](CCC(N)=O)NC(=O)[C@H](C)NC(=O)[C@H](CCC(=O)O)NC(=O)[C@H](CC(C)C)NC(=O)[C@H](CCC(N)=O)NC(=O)[C@H](C)NC(=O)[C@H](CC(C)C)NC(=O)[C@H](CCC(=O)O)NC(=O)[C@H](C)NC(=O)[C@@H](N)CCC(N)=O)C(N)=O; test system = K12; conditions = 24 h; MIC = > 250 µM
SMILES = CSCC[C@H](NC=O)C(=O)N[C@@H](CCCNC(=N)N)C(=O)N[C@H](C(=O)NCC(=O)N[C@@H](CC(N)=O)C(=O)N[C@@H](C)C(=O)N[C@@H](CC(N)=O)C(=O)NCC(=O)N1CCN(c2cc3c(cc2F)c(=O)c(C(=O)O)cn3C2CC2)CC1)[C@@H](C)O; test = broth dilution; test system = K12 MG1655 wild type; MIC = 5 µM
SMILES = CC[C@H](C)[C@H](NC(=O)[C@H](CCCNC(=N)N)NC(=O)[C@H]1CCCN1C(=O)[C@H](Cc1ccc(O)cc1)NC(=O)[C@@H](NC(=O)[C@@H](NC(=O)[C@H](CCCNC(=N)N)NC(=O)[C@H](Cc1ccccc1)NC(=O)[C@@H](NC(=O)[C@H](Cc1c[nH]c2ccccc12)NC(=O)[C@H](Cc1c[nH]c2ccccc12)NC(=O)c1ccccc1)C(C)C)C(C)C)C(C)C)C(=O)N[C@H](C(=O)N[C@@H](Cc1ccc(O)cc1)C(=O)N[C@H](C(=O)N[C@@H](CCCNC(=N)N)C(=O)N[C@@H](CCCNC(=N)N)C(=O)N[C@@H](CCCNC(=N)N)C(=O)N[C@@H](Cc1c[nH]c2ccccc12)C(=O)N[C@H](C(=O)NCC(=O)N1CCC[C@H]1C(=O)N[C@@H](CCCCN)C(=O)N[C@@H](CCCCN)C(N)=O)[C@@H](C)O)C(C)C)C(C)C; test = bacterial growth, broth dilution, OD600; test system = DH5α, LB medium; conditions = 16 h, 37 °C; MIC = 100 µM
SMILES = C=C1NC(=O)C2CSCC3NC(=O)C(CSC(C)C(NC(=S)C(Cc4cnc[nH]4)NC(=O)c4csc(C(C)NC(C)=O)n4)C(=O)N[C@H](CC(C)C(=O)NC(=O)CC(C(=O)O)NC(=O)C(C)NC3=O)C(=O)N2)NC(=O)[C@@H]2CCCN2C(=O)[C@@H](CC(C)C)NC1=O (stereo partly shown); test = bacterial growth; test system = ATCC 25922; MIC = > 32 µg/mL
SMILES = CC[C@H](C)[C@H](NC(=O)[C@@H](CCCNC(=N)N)NC(=O)[C@H](CCCNC(=N)N)NC(=O)[C@@H]1CCCN1C(=O)[C@@H]1CCCN1C(=O)[C@H](CCCNC(=N)N)NC(=O)[C@@H]1CCCN1C(=O)[C@H](CCCNC(=N)N)NC(=O)[C@@H]1CCCN1C(=O)[C@H](CC(C)C)NC(=O)[C@H](Cc1ccc(O)cc1)NC(=O)[C@@H]1CCCN1C(=O)[C@H](Cc1ccccc1)NC(=O)[C@H](CCCCN)NC(=O)[C@H](CC(=O)O)NC(=O)[C@@H](N)C(C)C)C(=O)N[C@@H](Cc1ccc(O)cc1)C(=O)N[C@@H](CC(N)=O)C(=O)N[C@H](CCCNC(=N)N)C(N)=O; test = broth microdilution; test system = BW25113; conditions = 18 h, 37 °C, 25% MHB2; MIC = 16 µg/mL
SMILES = CC(C)C[C@@H]1NC(=O)[C@H](CCCCN)NC(=O)CNC(=O)[C@H]2CCCN2C(=O)[C@H](CCCCN)NC(=O)[C@H](CC(C)C)NC(=O)[C@H](CCCCN)NC(=O)C2CCC=CCCC(NC(=O)[C@H](CCCCN)NC1=O)C(=O)N[C@@H](CCCCN)C(=O)NC(C(N)=O)CCC=CCCC(N)C(=O)N[C@@H](CCCCN)C(=O)N2 (stereo partly shown); test = broth microdilution; test system = ATCC 25922, Mueller-Hinton broth; conditions = 18 h, 37 °C; MIC = 32 µM
SMILES = CC[C@H](C)[C@H](NC(=O)[C@@H](CCCNC(=N)N)NC(=O)[C@H](CCCNC(=N)N)NC(=O)[C@@H]1CCCN1C(=O)[C@@H]1CCCN1C(=O)[C@H](CCCNC(=N)N)NC(=O)[C@@H]1CCCN1C(=O)[C@H](CCCNC(=N)N)NC(=O)[C@@H]1CCCN1C(=O)[C@H](CC(C)C)NC(=O)[C@H](Cc1ccc(O)cc1)NC(=O)[C@H](Cc1ccc(O)cc1)NC(=O)[C@@H]1CCCN1C(=O)[C@H](CCCCN)NC(=O)[C@H](CC(=O)O)NC(=O)[C@@H](N)C(C)C)C(=O)N[C@@H](Cc1ccc(O)cc1)C(=O)N[C@@H](CC(N)=O)C(=O)N[C@H](CCCNC(=N)N)C(N)=O; test = broth microdilution; test system = ATCC 25922; conditions = 18 h, 37 °C, 25% MHB2; MIC = 32 µg/mL
SMILES = CC[C@H](C)[C@H](NC(=O)[C@@H](NC(=O)[C@H](CCCCN)NC(=O)[C@H](CCCCN)NC(=O)[C@@H](NC(=O)[C@H](Cc1c[nH]c2ccccc12)NC(=O)[C@H](CCCCN)NC(=O)[C@H](Cc1c[nH]c2ccccc12)NC(=O)[C@H](CC(C)C)NC(=O)[C@H](CCCCN)NC(=O)[C@H](CCCCN)NC(=O)[C@@H](N)C(C)C)[C@@H](C)CC)C(C)C)C(N)=O; conditions = 24 h, 37 °C, Mueller-Hinton broth, NH4Cl 6 µM; MIC = 16 µM
SMILES = CC[C@H](C)[C@H](NC(=O)[C@@H](CCCNC(=N)N)NC(=O)[C@H](CCCNC(=N)N)NC(=O)[C@@H]1CCCN1C(=O)[C@@H]1CCCN1C(=O)[C@H](CCCNC(=N)N)NC(=O)[C@@H]1CCCN1C(=O)[C@H](CCCNC(=N)N)NC(=O)[C@@H]1CCCN1C(=O)[C@H](CC(C)C)NC(=O)[C@H](Cc1ccc(O)cc1)NC(=O)[C@H](Cc1ccccc1)NC(=O)[C@@H]1CCCN1C(=O)[C@H](CCCCN)NC(=O)[C@H](CC(=O)O)NC(=O)[C@@H](N)C(C)C)C(=O)N[C@@H](Cc1ccc(O)cc1)C(=O)N[C@@H](CC(N)=O)C(=O)N[C@H](CCCNC(=N)N)C(N)=O; test = broth microdilution; test system = MC4100; conditions = 18 h, 37 °C, 25% MHB2; MIC = 16 µg/mL
SMILES = CC1(C)[C@H](NC(=O)/C(=N\OCCN)c2csc(N)n2)C(=O)N1OS(=O)(=O)O; test = agar dilution; test system = CDC 1001728, NDM-1; MIC = 16 µg/mL
SMILES = CC[C@H](C)[C@H](NC(=O)[C@@H](CCCNC(=N)N)NC(=O)[C@H](CCCNC(=N)N)NC(=O)[C@@H](NC(=O)[C@H](Cc1c[nH]c2ccccc12)NC(=O)[C@H](CCCNC(=N)N)NC(=O)[C@@H]1CCCN1C(=O)[C@H](CCCNC(=N)N)NC(=O)[C@@H]1CCCN1C(=O)[C@H](CC(C)C)NC(=O)[C@H](Cc1ccc(O)cc1)NC(=O)[C@@H]1CCCN1C(=O)[C@@H]1CCCN1C(=O)[C@H](CCCCN)NC(=O)[C@H](CC(=O)O)NC(=O)[C@@H](N)C(C)C)C(C)C)C(=O)N[C@@H](Cc1ccc(O)cc1)C(=O)N[C@@H](CC(N)=O)C(=O)N[C@H](CCCNC(=N)N)C(N)=O; test = broth microdilution; test system = MC4100; conditions = 18 h, 37 °C, 25% MHB2; MIC = 16 µg/mL
SMILES = CCCCCCCC(=O)N[C@@H](CCN)C(=O)N[C@H](C(=O)N[C@@H](CCN)C(=O)N[C@H]1CCNC(=O)[C@H]([C@@H](C)O)NC(=O)[C@H](CCN)NC(=O)[C@H](CCN)NC(=O)[C@H](Cc2ccccc2F)NC(=O)[C@@H](CC(C)C)NC(=O)[C@H](CCN)NC1=O)[C@@H](C)O; test = broth microdilution; test system = ATCC 25922, colistin-susceptible; MIC = 0.06 to 0.125 µg/mL
SMILES = CC[C@H](C)[C@H](NC(=O)[C@@H](CCCNC(=N)N)NC(=O)[C@H](CCCNC(=N)N)NC(=O)[C@H](Cc1c[nH]c2ccccc12)NC(=O)[C@H](Cc1c[nH]c2ccccc12)NC(=O)[C@H](CCCNC(=N)N)NC(=O)[C@@H]1CCCN1C(=O)[C@H](CCCNC(=N)N)NC(=O)[C@@H]1CCCN1C(=O)[C@H](CC(C)C)NC(=O)[C@H](Cc1ccc(O)cc1)NC(=O)[C@@H]1CCCN1C(=O)[C@@H]1CCCN1C(=O)[C@H](CCCCN)NC(=O)[C@H](CC(=O)O)NC(=O)[C@@H](N)C(C)C)C(=O)N[C@@H](Cc1ccc(O)cc1)C(=O)N[C@@H](CC(N)=O)C(=O)N[C@H](CCCNC(=N)N)C(N)=O; test = broth microdilution; test system = BW25113; conditions = 18 h, 37 °C, 25% MHB2; MIC = 16 µg/mL
SMILES = CC[C@H](C)[C@H](NC(=O)[C@H](CCCNC(=N)N)NC(=O)[C@H](CCCCN)NC(=O)[C@H](CC(C)C)NC(=O)[C@H](CC(C)C)NC(=O)CNC(=O)CCCCCNC(=O)CCCC[C@@H]1SC[C@@H]2NC(=O)N[C@@H]21)C(=O)N[C@@H](CCCCN)C(=O)N[C@H](C(=O)N[C@@H](CC(C)C)C(=O)N[C@@H](CC(C)C)C(N)=O)[C@@H](C)O; test = broth microdilution; test system = M/14072, Mueller-Hinton broth; MIC = 20 µM

Some of these lines once more:
SMILES = CC[C@H](C)[C@H](NC(=O)[C@@H]1CCCN1C(=O)CNC(=O)[C@H](CC(C)C)NC(=O)[C@H](CCCCN)NC(=O)[C@H](CCCNC(=N)N)NC(=O)[C@H](Cc1c[nH]c2ccccc12)NC(=O)[C@H](C)NC(=O)[C@H](CC(N)=O)NC(=O)[C@H](CCCCN)NC(=O)[C@H](CC(C)C)NC(=O)[C@H](CCCCN)NC(=O)[C@H](CC(N)=O)NC(=O)[C@H](CCCNC(=N)N)NC(=O)[C@H](C)NC(=O)[C@H](CCCNC(=N)N)NC(=O)[C@H](CCCNC(=N)N)NC(=O)[C@H](Cc1ccccc1)NC(=O)[C@H](Cc1c[nH]c2ccccc12)NC(=O)CN)C(=O)N[C@H](C(=O)NCC(=O)N1CCC[C@H]1C(=O)N[C@@H](CC(C)C)C(=O)N[C@@H](CC(C)C)C(=O)N[C@H](C(=O)N[C@@H](CCCNC(=N)N)C(=O)O)[C@@H](C)O)C(C)C; test = broth microdilution; test system = ATCC 25922, Mueller-Hinton broth; conditions = 16 to 20 h, 37 °C; MIC = 2.2 µg/mL
